Experimental data gathered from unrelated publications.
A part holds a random share of what one study measured. Substitutions count along the parent as printed.

Study 1 — technique: protein binding microarray; molecule type: double-stranded DNA, one strand shown; sample: in vitro; tested at: not given; reference: not given; direction: higher = stronger binding
Target: Histone acetyltransferase KAT6A, winged helix 2, GST fusion (KAT6A, Homo sapiens, UniProt Q92794, residues 85-181)
Notes: 8-mer, flanks averaged, mean of 2 arrays, mostly near background
Residues (chain): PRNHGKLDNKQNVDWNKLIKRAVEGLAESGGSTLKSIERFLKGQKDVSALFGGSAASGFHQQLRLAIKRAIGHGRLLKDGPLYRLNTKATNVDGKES
Strand | E-score
CCCGTTAG | -0.0239
AGAAACCG | -0.0887
ACCCACGT | -0.101
GCTTTGTA | 0.134
AGCCCCCC | -0.22
AAGAGGGA | -0.0508
ATTGTGTG | -0.0833

Study 2 — target: CCNB1, cyclin fold, Cln2 fusion (human); technique: yeast growth competition, sequencing; sample: yeast; notes: weak parent motif; reference: not given; direction: higher = stronger binding
Parent: SCAPER docking peptide (human); SNARRSLNFGGST
Variant | normalised enrichment score
SNARRSLNFYGST [G10Y] | 0.658
SNAVRSLNFGGST [R4V] | 0.866
SNARRSLNFEGST [G10E] | 0.26
SNARRSLNFGGAT [S12A] | 0.991
SNARRSQNFGGST [L7Q] | 0.997
SNARRSLTFGGST [N8T] | 0.504
SNNRRSLNFGGST [A3N] | 1.06
SPARRSLNFGGST [N2P] | 0.177
SNARRSLNFGGET [S12E] | 0.736

Study 3 — technique: aptamer microarray, sandwich; molecule type: DNA with 2'F-ANA; sample: in vitro; tested at: 200 nM; added: Cy3 exosite-II aptamer, 400 nM; direction: higher = stronger binding; strand: GGTTGGTGTGGTTGG
Target: Prothrombin, mature alpha-thrombin (F2, Homo sapiens, UniProt P00734)
Notes: whole 15-mer aptamer, many near background
Modification | mean fluorescence intensity [a.u.]
2'F-ANA at 3 7 10 11 12 15 | 637
2'F-ANA at 1 2 5 7 10 12 13 14 15 | 49.7
2'F-ANA at 2 3 4 5 6 7 9 11 | 85
2'F-ANA at 1 2 5 6 7 11 13 15 | 56
2'F-ANA at 3 4 5 6 7 10 11 14 | 196
2'F-ANA at 1 4 12 | 307
2'F-ANA at 2 3 4 5 6 7 8 9 10 11 13 | 64.6
2'F-ANA at 1 2 3 4 5 6 12 13 | 81.8
2'F-ANA at 1 2 3 5 7 8 13 | 55.5
2'F-ANA at 1 2 3 4 5 6 8 10 12 15 | 57.4
2'F-ANA at 1 3 5 6 13 | 50.5

Further values, each from its own experiment
Molecule | target | test | test system | conditions | scale | quantity | value
PhoQ, residues 284 288 289 292 302 303 NLAAMI | PhoP, residues 12 14 15 18 19 NQFFI (Escherichia coli, UniProt P23836) | Sort-seq, refers to: YFP reporter | E. coli | PhoQ-PhoP variant library, added: 10 µM Mg2+ | reference: high Mg2+ state, higher = stronger signaling | fold induction | 17.4
